Results from different studies.
Numbered parts are unrelated; each lists some results of a single study. Substitutions count along the parent as printed.

Block 1
Target: ABI1, truncated, D143A, DHFR fusion (Arabidopsis thaliana)
Method: DHFR PCA, deep sequencing
Medium: yeast
Notes: methotrexate growth selection, single substitutions
With: (+)-ABA 58 µM
Reference: wild-type fitted maximum
Direction: higher = stronger binding
Quantity: relative binding score
Starting sequence: PYL1, truncated, DHFR fusion (Arabidopsis thaliana); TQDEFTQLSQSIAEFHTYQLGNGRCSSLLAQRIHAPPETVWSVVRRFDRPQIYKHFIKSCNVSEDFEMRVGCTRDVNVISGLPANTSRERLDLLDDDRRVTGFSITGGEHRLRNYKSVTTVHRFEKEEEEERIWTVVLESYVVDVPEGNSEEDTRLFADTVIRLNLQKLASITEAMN
S9V: 76.6%
N114R: 61.4%
T17E: 70.2%
L138M: 83.2%
V143N: 11.4%
N61S: 87.6%
L29H: 87.4%
W134Y: 103%
Y115S: 8.46%
L156F: 75.3%
S104Q: 37.5%
D159L: -0.736%
H34D: 82.3%
I12D: 0.114%
N177E: 70.2%
S9E: 94.8%
D144H: 33.9%
T173Y: 22.3%
E128G: 94.2%
C60Y: 19.3%

Block 2
Target: CCNB1, cyclin fold, Cln2 fusion (human)
Method: yeast growth competition, sequencing
Medium: yeast
Notes: strong parent motif
Reference: not given
Direction: higher = stronger binding
Quantity: normalised enrichment score
Starting sequence: MASTL docking peptide (human); PMIAKNLMCELDE
E10H: 0.4
M2E: 2.15
M8I: 0.998
E10L: 1.76
L7F: -0.0945
L11M: 0.407
L11D: -0.174
K5H: 0.179
C9H: 1.97
L7E: 0.199
I3H: 0.00259
L7W: -0.00559
D12W: 0.222

Block 3
Target: Fragile X messenger ribonucleoprotein 1, C-terminal low-complexity region (Fmr1, Mus musculus, UniProt P35922)
Method: RNA Bind-n-Seq
Form: RNA
Medium: in vitro
Tested at: 200 nM
Notes: whole 134-nt RNA, ends assumed
With: 150 mM LiCl
Reference: input library
Direction: higher = stronger binding
Quantity: log2 enrichment
All molecules: 7-deaza-guanosine replaces G
Shared flanks, not repeated: GGGAGUUCUACAGUCCGACGAUC … UGGAAUUCUCGGGUGUCAAGG
UCCUGUGCUACACAUCGUAUGUACCGAAUCAAACCCCCCCAAAUUUAAAUUUUUUUAAAAAAGUAUUAUGUUACGCCGUUCGGAUCUGCA: 1.96
UAACUUUAGAGGAGGAUCUGAAGGAUAUGGCAGUGGACGUGGAUUUGGGGAUGGCUAUAAUGGGUAUGGAGGAGGACCUGGAGGUGGCAA: 0.000729
CCUCAAGUCCUGUGCUACACAUCGUAUGUACCGAAUCGGAAGGGAAGGAAGGGAAAGUAUUAUGUUACGCCGUUCGGAUCUGCACUUCCA: -1.33
UGACUUUAGGAGAUACCUUAACUCGACGUUCCAUUAGCCAGCAGAAGUCCGGAGUUUCCAUUACCAUUGAUGACCCAGUCCGAACUGCCC: -1.16
UUGAUUGAUAUUACAGGCAAGAACCAGGAUGAAUGUGUGAUUGCUUUGCAUGACUGCAAUGGAGAUGUCAACAGAGCUAUCAAUGUUCUU: -4.45
AGUCCUGUGCUACACAUCGUAUGUACCGAAUCGGGGCCCCGGCCCCGGGGCCCCGGGGAAAGUAUUAUGUUACGCCGUUCGGAUCUGCAC: -1.71
CAAGUCCUGUGCUACACAUCGUAUGUACCGAAUCGGGGCCGGGGCCGGGGCCGGGGAAAGUAUUAUGUUACGCCGUUCGGAUCUGCACUU: -0.55
CACAGACAACACGCACCCACACAGACCCAGAGGGAAGGGGUUGGGAUGGGGACAGGGUGCACAGCAGGGCGGGGUAGGACCCCAGCCCCU: -0.709
CACAGACAACACGCACAAACACAGACACAGAGGGAAGGGGUUGGGAUGGGGACAGGGUGCACAGCAGGGCGGGGUAGGACCCCAGCCCCU: 0.947
UCCUCAAGUCCUGUGCUACACAUCGUAUGUACCGAAUCGGGAGGGGAGGAGGAAAGUAUUAUGUUACGCCGUUCGGAUCUGCACUUCCAG: -1.1
CCUGUGCUACACAUCGUAUGUACCGAAUCGGGGCCCCCCGGCCCCCCGGGCCCCCCGGGGAAAGUAUUAUGUUACGCCGUUCGGAUCUGC: -0.924

Mixed results
PhoQ, residues 284 288 289 292 302 303 SSCLAV  fold induction (PhoP, residues 12 14 15 18 19 FWNTL (Escherichia coli, UniProt P23836); Sort-seq, measured: YFP reporter; E. coli; PhoQ-PhoP variant library, with: 10 µM Mg2+; reference: high Mg2+ state, higher = stronger signaling): 2.79

Repeated from above (block 2):
L7F: -0.0945
L11M: 0.407
L11D: -0.174
